Published values gathered from unrelated publications.
Each line is one published result; not all experiments were run side by side. ± marks the error that the study gave.

test | test system | setting | half-life | Compound
– | mouse C57BL/6 male, brain | oral, 25 mg/kg | 264 ± 17 min | Clc1ccc(C(c2c[nH]c3ccccc23)c2c[nH]c3ccccc23)cc1
– | ICR mouse | oral, 10 mg/kg | 138 ± 13.8 min | O=C(Cc1ccc(-c2ccc(OCCN3CCOCC3)cc2)cn1)NCc1ccc(F)cc1
– | CD-1 mouse, Wistar rat, rhesus monkey, plasma | intravenous | 60 to 240 min | CN(C(=O)c1ccn2ncc(-c3ccc(C(N)=O)cc3)c2c1)c1ccc(C#N)cn1
– | male C57BL/6J mouse, plasma | subcutaneous, 20 mg/kg, depot formulation | 18500 min | CCCCCCCCCCCCCCCC(=O)NCCOCCOCCOCCOCCOCCOCCOCCOCCC(=O)NCCCC[C@H](NC(=O)CNC(=O)[C@@H]1CSSC[C@H](N)C(=O)N[C@@H](Cc2ccc(O)cc2)C(=O)N[C@@H]([C@@H](C)CC)C(=O)N[C@@H](CCC(N)=O)C(=O)N[C@@H](CC(N)=O)C(=O)N1)C(=O)NCC(N)=O
– | mouse | – | 414 min | CC(=O)N[C@@H](Cc1cnc[nH]1)C(=O)N[C@H](Cc1ccccc1)C(=O)N[C@@H](CCCNC(=N)N)C(=O)N[C@@H](Cc1c[nH]c2ccccc12)C(=O)NCCCOCCOCCOCCCNC(=O)COCC(=O)N[C@@H](Cc1cnc[nH]1)C(=O)N[C@H](Cc1ccc2ccccc2c1)C(=O)N[C@@H](CCCNC(=N)N)C(=O)N[C@@H](Cc1c[nH]c2ccccc12)C(N)=O
– | mouse B6 male, plasma | – | ~300 min | CCN(CC)C(=O)c1ccc(-c2cc(NCCCN3CCCCC3)c3ccccc3n2)cc1
– | mouse | intravenous, 10 mg/kg | 396 min | CCCCCCC[C@@H](O)CC(=O)N[C@H](CCN)C(=O)N[C@H]1CCNC(=O)[C@H](CC(C)C)NC(=O)[C@H](CCN)NC(=O)[C@H](CCN)NC(=O)[C@H](CC(C)C)NC(=O)[C@@H](Cc2ccccc2)NC(=O)[C@H](CCN)NC1=O
– | male ICR mouse, plasma | oral, 60 mg/kg | 34.8 min | NC(=O)c1ccc(C(=O)NOCc2ccc(Sc3cccc(Cl)c3)c(C(F)(F)F)c2)cc1
– | C57BL/6 mouse female, plasma | oral, 25 mg/kg | 157 min | Cc1cccc(O[C@H]2CCC[C@@H](C(C)CNCc3ccncc3)C2)c1 (relative stereo)
LC-MS/MS | C57BL/6 mouse female, plasma | – | ~30 min | CCC(=O)N(C)c1ccc(Cl)c(Cl)c1
– | mouse, plasma | intravenous, dose not given | 30 min | Cc1cc2c(c(=O)o1)C=C1CCC(C(C)CNCc3ccc(O)cc3)CC1O2 (stereo not drawn)
– | BALB/c nude mouse, whole blood | 1 µM, 37 °C | 4370 min | C=CC(=O)NCc1ccc(-n2nc3c(=O)[nH]nc(N)c3c2-c2oc3ccc(C)cc3c2C)cc1
– | CF-1 mouse, female | subcutaneous, 75 mg/kg | 41.4 ± 1.8 min | COc1ccc(-c2ccn(CC[C@](C)(C(=O)NO)S(C)(=O)=O)c(=O)c2)c(F)c1
– | mouse, plasma | intraperitoneal, 5 mg/kg | 36 min | COc1cc(/C=C/C(=O)NCCn2c(C)cc3ccccc32)cc(OC)c1OC
– | mouse | oral, 10 mg/kg | 116 min | COCc1nc(C(F)(F)F)[nH]c1-c1cc(C(=O)N2CC(c3ccc(C#N)cc3)C2)c(C)cc1C
